Values quoted from earlier work that unrelated publications cite.
Each line is one published result; not all experiments were run side by side.
UniProt Q86Z02, sequence (whole entry, looked up): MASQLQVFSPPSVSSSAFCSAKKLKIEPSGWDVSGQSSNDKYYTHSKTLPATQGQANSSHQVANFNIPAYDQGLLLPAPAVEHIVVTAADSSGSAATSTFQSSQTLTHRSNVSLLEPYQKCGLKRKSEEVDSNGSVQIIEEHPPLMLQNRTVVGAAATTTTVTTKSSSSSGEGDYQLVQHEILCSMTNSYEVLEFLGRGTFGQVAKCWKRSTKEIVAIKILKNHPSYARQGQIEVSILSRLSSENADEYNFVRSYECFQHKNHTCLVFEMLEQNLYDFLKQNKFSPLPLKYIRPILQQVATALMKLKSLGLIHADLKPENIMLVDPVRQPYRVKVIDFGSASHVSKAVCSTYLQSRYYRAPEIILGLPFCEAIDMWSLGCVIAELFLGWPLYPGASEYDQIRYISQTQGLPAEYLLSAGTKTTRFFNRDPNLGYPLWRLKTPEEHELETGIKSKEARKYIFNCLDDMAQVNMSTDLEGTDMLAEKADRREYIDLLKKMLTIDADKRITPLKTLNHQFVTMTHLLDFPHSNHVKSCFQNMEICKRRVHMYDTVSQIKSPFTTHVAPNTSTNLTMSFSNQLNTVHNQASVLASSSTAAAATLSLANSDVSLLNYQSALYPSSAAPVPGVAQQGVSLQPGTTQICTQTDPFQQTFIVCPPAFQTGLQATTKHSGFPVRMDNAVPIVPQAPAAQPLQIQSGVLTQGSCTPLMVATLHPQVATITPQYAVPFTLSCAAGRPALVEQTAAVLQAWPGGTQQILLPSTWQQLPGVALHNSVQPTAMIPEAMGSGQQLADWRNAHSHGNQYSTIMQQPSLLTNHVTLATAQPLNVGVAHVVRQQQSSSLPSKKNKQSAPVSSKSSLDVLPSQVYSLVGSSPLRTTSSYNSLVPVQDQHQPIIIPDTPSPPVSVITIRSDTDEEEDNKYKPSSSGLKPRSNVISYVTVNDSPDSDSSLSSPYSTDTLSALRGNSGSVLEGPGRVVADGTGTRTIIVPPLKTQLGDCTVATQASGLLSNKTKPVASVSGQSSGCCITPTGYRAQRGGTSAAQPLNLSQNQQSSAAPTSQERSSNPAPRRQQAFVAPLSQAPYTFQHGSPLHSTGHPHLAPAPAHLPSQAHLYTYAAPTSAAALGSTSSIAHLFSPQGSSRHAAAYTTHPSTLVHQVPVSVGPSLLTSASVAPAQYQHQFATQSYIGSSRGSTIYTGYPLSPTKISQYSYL

| Compound | target or system | test | system | setting | how to read | quantity | result |
| --- | --- | --- | --- | --- | --- | --- | --- |
| C[C@]12C[C@H](O)[C@H]3[C@@H](CCC4=CC(=O)CC[C@@]43C)[C@@H]1CC[C@@H]2C(=O)CO |  |  |  |  |  | log KOW | < 2 |
| O=C(O)CN1CCNCCN(CC(=O)O)CCNCC1 |  |  | 0.1 M KCl |  |  | log KH1 | 11.7 |
| O=C(O)CN1CCN(CC(=O)O)CCN(Cc2cccc(C(=O)O)n2)CC1 |  |  | free ligand | second carboxylate protonation |  | log Ka | 2.95 |
| C[Si](C)(C)O[Si](C)(C)O[Si](C)(C)C |  |  | dry 1-octanol/air | 25 °C |  | log KOA | 3.77 |
| C[Si]1(C)O[Si](C)(C)O[Si](C)(C)O[Si](C)(C)O[Si](C)(C)O[Si](C)(C)O1 |  |  |  |  |  | log Kow | 8.87 |
| Nc1cc(C(F)(F)F)c(-c2nc(N3CCOCC3)nc(N3CCOCC3)n2)cn1 | HIPK1 (Homo sapiens, UniProt Q86Z02) | enzyme activity |  | 10 µM | baseline: untreated | remaining activity | 76% |
| C[Si]1(C)O[Si](C)(C)O[Si](C)(C)O[Si](C)(C)O[Si](C)(C)O1 |  |  | dry 1-octanol/air | 25 °C |  | log KOA | 4.95 |
| c1ccc2c(c1)ccc1ccccc12 |  |  |  | experimental mean |  | log Kow | 4.46 |
| C[C@]12CCC(=O)C=C1CC[C@@H]1[C@@H]2[C@@H](O)C[C@@]2(C)[C@H]1CC[C@]2(O)C(=O)CO |  |  |  |  |  | log KOW | < 2 |
| CC(C)(c1ccc(O)cc1)c1ccc(O)cc1 |  |  |  |  |  | log Kow | 3.32 |
| CC(C)(Oc1ccc(Cl)cc1)C(=O)O |  |  |  |  |  | log Kow | 2.57 |
| c1ccc2c(c1)ccc1c3ccccc3ccc21 |  |  |  | experimental mean or OPERA estimate |  | log Kow | 5.81 |
| C[Si](C)(C)O[Si](C)(C)O[Si](C)(C)O[Si](C)(C)O[Si](C)(C)C |  |  |  |  |  | log Kow | 9.41 |
| CC(C)(Oc1ccc(CCNC(=O)c2ccc(Cl)cc2)cc1)C(=O)O |  |  |  |  |  | log Kow | 4.07 |
| C[Si](C)(C)O[Si](C)(C)C |  | vapour pressure over solubility |  | 25 °C |  | log KAW | 2.6 |

A few entries again:
| Compound | target or system | test | system | setting | how to read | quantity | result |
| --- | --- | --- | --- | --- | --- | --- | --- |
| C[Si]1(C)O[Si](C)(C)O[Si](C)(C)O[Si](C)(C)O[Si](C)(C)O[Si](C)(C)O1 |  |  |  |  |  | log Kow | 8.87 |
| Nc1cc(C(F)(F)F)c(-c2nc(N3CCOCC3)nc(N3CCOCC3)n2)cn1 | HIPK1 (Homo sapiens, UniProt Q86Z02) | enzyme activity |  | 10 µM | baseline: untreated | remaining activity | 76% |
